# Results from different studies.
# Each numbered part is a random draw from the data of one study; scales do not carry over between parts.

# Study 1
# Target: Sal-like protein 4, full length isoform B (SALL4, Homo sapiens, UniProt Q9UJQ4-2, residues 1-616)
# Method: universal PBM
# Form: double-stranded DNA, one strand shown
# Sample: in vitro
# Concentration: not given
# Notes: 8-mer, flanks averaged, mean of replicates
# Direction: higher = stronger binding
Strand,E-score
AATGGGCT,-0.0895
CCCGCTAG,-0.118
GACACTCA,-0.144
AGCAAAGA,0.0568
CTACCGTC,-0.252
ACAAATAG,0.267
GACCTATC,-0.0758

# Study 2
# Target: Histone acetyltransferase KAT6A, winged helix 2, GST fusion (KAT6A, Homo sapiens, UniProt Q92794, residues 85-181)
# Method: protein binding microarray
# Form: double-stranded DNA, one strand shown
# Sample: in vitro
# Concentration: not given
# Notes: 8-mer, flanks averaged, mean of 2 arrays, mostly near background
# Relative to: not given
# Direction: higher = stronger binding
# Residues (chain): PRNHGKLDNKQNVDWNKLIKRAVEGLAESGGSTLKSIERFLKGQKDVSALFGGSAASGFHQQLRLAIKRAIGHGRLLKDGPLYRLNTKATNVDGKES
Strand,E-score
CCGTCTCA,-0.0579
GAGACCGA,-0.00424
ATTCCTCC,0.145
CACCTGAA,-0.0725
CACAGGAG,0.0311
CCCTAGCA,-0.0497

# Study 3
# Target: Fragile X messenger ribonucleoprotein 1, C-terminal low-complexity region (Fmr1, Mus musculus, UniProt P35922)
# Method: RNA Bind-n-Seq
# Form: RNA
# Sample: in vitro
# Concentration: 200 nM
# Notes: whole 134-nt RNA, ends assumed
# Together with: 150 mM LiCl
# Relative to: input library
# Direction: higher = stronger binding
# Library: 7-deaza-guanosine replaces G
# Shared flanks, not repeated: GGGAGUUCUACAGUCCGACGAUC … UGGAAUUCUCGGGUGUCAAGG
Strand,log2 enrichment
CACAGACAACACGCACCCACACAGACACAGAGGGAAGGGGUUGGGAUGGGGACAGGGUGCACAGCAGGGCGGGGUAGGACGCCAGCCCCU,0.00526
AGUCCUGUGCUACACAUCGUAUGUACCGAAUCGGGGAGGGGUGGGGUUUUUUUGGGGAAAGUAUUAUGUUACGCCGUUCGGAUCUGCACU,-0.556
AGUCCUGUGCUACACAUCGUAUGUACCGAAUCGGAAAAAAAGGAAAGGAAAAAAAGGAAAGUAUUAUGUUACGCCGUUCGGAUCUGCACU,-1.65
CAAGUCCUGUGCUACACAUCGUAUGUACCGAAUCGGCCCGGGCCCGGGGCCCGGGGAAAGUAUUAUGUUACGCCGUUCGGAUCUGCACUU,-1.92
UGGGAGGUGGAUUUUGUUUAUUUUUUUAGCUCAUUUCCAGGGGUGGGAAUUUUUUUAUAAUAUGUGUCAUGAAUAAAGUUGUUUUUGAAA,0.0424
ACCAUGCAGGUGGGCAUCUUUGGGAAGUGGGGCAAGGGGGGGAUCGGGAGGGGGGUAACACUUUGGGAACAGGUGGUCCCAGGUCGUUUC,0.808

# Other studies, line by line
Molecule,target,test,system,conditions,scale,endpoint,result
"PhoQ, residues 284 288 289 292 302 303 SLSLLA","PhoP, residues 12 14 15 18 19 SMASL (Escherichia coli, UniProt P23836)","Sort-seq, measured: YFP reporter",E. coli,"PhoQ-PhoP variant library, together with: 10 µM Mg2+","relative to: high Mg2+ state, higher = stronger signaling",fold induction,8.91

# Some of these lines once more (study 2):
Strand,E-score
GAGACCGA,-0.00424
ATTCCTCC,0.145
